Measured values collected from several papers.
A part holds a random share of what one study measured. Positions count from the first letter of the parent shown.

Series 1
Target: FOS, bZIP domain (human)
Method: DHFR protein complementation
Medium: yeast
Notes: single substitutions, most at no-binding floor
Relative to: wild-type JUN-FOS pair
Direction: higher = stronger binding
Parent: JUN, bZIP domain (human); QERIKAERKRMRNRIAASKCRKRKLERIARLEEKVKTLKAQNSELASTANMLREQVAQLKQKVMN; partner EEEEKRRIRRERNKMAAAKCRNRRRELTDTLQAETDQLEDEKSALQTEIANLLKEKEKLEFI
| Change | binding fitness [natural log] |
| --- | --- |
| R30T | 0.147 |
| E44F | -0.33 |
| V35W | -0.526 |
| L52F | -1.18 |
| K39E | -0.705 |
| I28P | -0.374 |
| A40W | -0.341 |
| E54R | -0.172 |
| A57V | -0.183 |
| N42F | -1.31 |
| A40P | -1.33 |
| A49R | 0.148 |
| V35H | -0.495 |
| L38G | -1.2 |
| E44R | -0.152 |
| T48G | -1.06 |
| L52P | -1.12 |

Series 2
Target: ABI1, truncated, D143A, DHFR fusion (Arabidopsis thaliana)
Method: DHFR PCA, deep sequencing
Medium: yeast
Notes: methotrexate growth selection, single substitutions
Added: (+)-ABA 0 µM
Relative to: wild-type fitted maximum
Direction: higher = stronger binding
Parent: PYL1, truncated, DHFR fusion (Arabidopsis thaliana); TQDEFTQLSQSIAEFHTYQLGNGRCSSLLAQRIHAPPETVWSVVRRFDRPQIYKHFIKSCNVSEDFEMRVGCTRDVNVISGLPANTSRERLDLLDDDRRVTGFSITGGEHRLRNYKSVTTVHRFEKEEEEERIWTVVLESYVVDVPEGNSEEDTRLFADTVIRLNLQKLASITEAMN; partner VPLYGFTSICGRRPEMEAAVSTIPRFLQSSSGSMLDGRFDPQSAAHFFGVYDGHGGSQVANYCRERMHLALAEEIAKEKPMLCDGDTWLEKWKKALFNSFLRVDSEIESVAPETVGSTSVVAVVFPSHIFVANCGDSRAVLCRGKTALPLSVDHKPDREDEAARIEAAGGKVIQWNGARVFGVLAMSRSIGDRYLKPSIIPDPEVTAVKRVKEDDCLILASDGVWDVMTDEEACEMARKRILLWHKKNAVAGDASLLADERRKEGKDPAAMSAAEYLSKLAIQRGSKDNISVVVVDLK
| Change | relative binding score [%] |
| --- | --- |
| T173D | -0.977 |
| H110P | 67.1 |
| R123E | 40.2 |
| S171V | 15.9 |
| G71F | 6.38 |
| D96M | -3.82 |
| A170M | -3.87 |
| E128F | 9.86 |
| F56I | -5.26 |
| M68A | 3.83 |
| R163I | -9.9 |
| F47L | 2.28 |
| R24H | 8.91 |
| T39P | 1.67 |
| V76S | 0.78 |
| C60E | 1.58 |

Series 3
Target: CCNF, cyclin fold, Cln2 fusion (human)
Method: yeast growth competition, sequencing
Medium: yeast
Notes: strong parent motif
Relative to: not given
Direction: higher = stronger binding
Parent: WEE1 docking peptide (human); CTLRQKLIFSPCS
| Change | normalised enrichment score |
| --- | --- |
| K6A | 1.5 |
| I8A | 2.36 |
| Q5A | 2.36 |
| S13A | 3.66 |
| C1A | 3.43 |
| T2A | 3.86 |
| S10A | 2.54 |

Series 4
Target: RNA binding protein fox-1 homolog 2, RRM domain, GST-SBP tag (RBFOX2, Homo sapiens, UniProt O43251-10, residues 100-194)
Method: RNA Bind-n-Seq
Molecule type: RNA
Medium: in vitro
Tested at: 365 nM
Notes: natural RNA segment, single round, ends assumed
Relative to: no-protein control
Direction: higher = stronger binding
Constant ends, left off below: GGGAGUUCUACAGUCCGACGAUC … UGGAAUUCUCGGGUGCCAA
Residues (chain): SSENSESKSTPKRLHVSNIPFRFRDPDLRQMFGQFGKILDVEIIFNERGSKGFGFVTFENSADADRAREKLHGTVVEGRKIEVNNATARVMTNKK
| Strand | RBNS enrichment (R) |
| --- | --- |
| AGUUCCAGCUACAACUAAAUACAACGUCCUUUGCACCCCUAGAAUGUCAUUUUGCCCUCAAUCUUGGAAUUUCUCCCAGGGCCCUUGUAGUCUUGUGCUGUCUCCUGUCC | 1.15 |
| AAACAGGAACCAAAUGUGACCUUGUGCAUAUAUUGGUAGCUGAAAAUCUUCAAGGCUACUGAUGGGUGGCCCCUUAAUCUUGUCUUUGAUUGCUGUGUGCAGGGAAAGGU | 0.676 |
| GAAGGCUUGAUAAAUUUUUAACAAAGUUUGUACAUUUUUUAUGAAAGUUACUAGUAAUGCUUUACUAAGUAGUGCAAUGAAUUUUUAUUUUUAAUCCCUGUGCCCAAUUU | 0.773 |
| GCUGAGCUAGGCUACAGGGGAAAACUAUUGUGUUGUAAAGUUGCAUCGCUAUUUUAUAUUAAAAUGUAAUGAUCAGCAUCAUGAACAAUGAGCUCUUAGUGUUUUAUUUA | 0.453 |
| GCCACUAUGCUUGGCUGGCCUUGCUCUUGCCACAAAAGCUCGUUGGAUGGAAAAAGCUGAAGCAAGUGGCUGUUCUCUGAUCAGGCGGGGGAUGCCUCUUUUCCUCGCGA | 0.492 |
| AGUUUUAGGAACUGUAGUAAUGUGGCUUAGAAAGUAUAAUGGCCUAAAUGUUUUCAAAAUGUAAGUUCCUGUGGAGAAGAAUUGUUUAUAUUGCAAACGGGGGGACUGAG | 2.45 |
| AACACAUUUGCAAGGUGAUUGACACCAUCUUUGCCUAAAUGCAGUGAGUGUACAGGAAGCUCGUUCUCGAGACAGUACAUACAAAUCCGGAGGGGGUCACAUAGACUAGG | 0.232 |
| GCCACGCAGGAUCCCGUGUCCUGCAGACGAGAGCGGCUUUCUUGUUUGUGGGAUUUUGUUUGGACACAGAGUUGUUUUGCAAUCAUGGUGUGCUUCCCAGGGACAGAGCG | 0.777 |
| CAUGCUUUAAAUGAUGUCACUUUCCACAACUUCAUUCUUGUGCUGUCAUUGGACUGAAUGUUAUGCAUCUUUAAAGGGAAUCACUUCGUGUAAAACUCUCUUGUCUCUUC | 0.49 |
| UUCCCCAAAGCCCUGGGCCACUGCCAUUGGGUUAGUCAAGAUGAAGGAGGAGGACUGGCUGCCUCCAUUUUGCCUUGUUUGUUAGUUUGCCUGGGUCUGUCUGAGGAAGG | 4.17 |
| AAUGCCCCUCGCUUUUCUAAGGCCAUGUGAAAAUCACGGCACUGCCCUUAGCCUUGUGUCAUCUGCUUUUUCGUUCUGCGAUAUGCCCAGUUCCCAAAUCAAUUAUAGGU | 0.242 |
| ACAUCCCCUGCUGCUUGGUUGACCCCCCCAAAUCCAGGGUCACUGCUCAGCUCUGCUUAUAGCUAUACCUGCCUCUUAGGUCUUCUGUUUGCCCGUUUCUGAGGUCAGAU | 0.307 |

Series 5
Target: RING finger protein unkempt homolog, zinc fingers 1-6, GST-SBP tag (UNK, Homo sapiens, UniProt Q9C0B0, residues 30-357)
Method: RNA Bind-n-Seq
Molecule type: RNA
Medium: in vitro
Tested at: not given
Notes: RNA with constant flanks, ends assumed
Relative to: input RNA pool
Direction: higher = stronger binding
Constant ends, left off below: GGGAGUUCUACAGUCCGACGAUC … CAACAGAGGAUUGAGCAUCA
Construct (chain): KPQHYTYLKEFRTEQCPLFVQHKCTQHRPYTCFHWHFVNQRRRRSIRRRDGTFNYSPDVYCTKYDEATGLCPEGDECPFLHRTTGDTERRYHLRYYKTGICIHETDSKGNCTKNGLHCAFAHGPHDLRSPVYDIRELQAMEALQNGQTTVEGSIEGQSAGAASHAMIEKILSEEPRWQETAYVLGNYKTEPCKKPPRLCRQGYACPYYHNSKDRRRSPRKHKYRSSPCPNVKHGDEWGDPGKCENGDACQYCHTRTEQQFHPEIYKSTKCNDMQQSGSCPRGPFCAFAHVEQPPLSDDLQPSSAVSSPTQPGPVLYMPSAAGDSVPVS
| Strand | bound/input enrichment [ratio] |
| --- | --- |
| CAGCUGCGAGGCCGCGGGUGCCCGCCGGGUGUGCUGAGCCGCCGCCAUGGGCAUCAAGUUUUCCGAAGUUAUUAAACCUUUCUGUGCAGUUCUACCAGAAAUUCAGAAGCCUGAAAGGAA | 0.101 |
| CUCAAGCUACCAAAAAGAAAGUGGCAAUAUAUUGACUCAGGAUCUCAAAGCUGGGUGUUUCCGCAUUACUGUGUAAAGACUUGAAGGGACAGAAGUGAAGAAAAUAAGCUGCAAUUUUGU | 0.0839 |
| UGUGUCCACAUAUUUGUCCAUUUGUCUGUGUACAAUCAGUCCUGGUGAUCACAUGGACUAUACCGUCCACAUCUCUGUAUCUUGCUGGAAAGAACCCAAAGGAGCAUCGUAUGGACACUU | 0.249 |
| ACCAGCACAUUUUCUGAAUACACAGUUGUGGCUGAUAUCUCUGUUGCUAAAAUAGAUCCUUCCGCACCUUUGGAUAAAGUCUGCCUUCUAGGUUGUGGCAUUUCAACCGGUUAUGGUGCU | 0.902 |
| AGCGACAGAAAAAGGGAAGGGUGUCUCAUCCCCCUUCCUCCUCUCCUCCCUGUCCUGAGCCUCCGCCAUGGCCGAGGCAGGGGCUGGGCUGAGCGAGACCGUCACUGAGACAACGGUUAC | 0.213 |
| GCUGAAGAUGACAGCAAAAUAGAUUCAUGAAGUUUUUUGCCUCCCACGUUGGGAAGUCCUCCGUGAAGAAUUCUCCCAUGGGCCGUUCACUGUCCUUCUCCAGGCCCCUAUCUGUCCUCC | 0.577 |
| GCCCAAGCUUGUCCCUGAACCACUGUGUGCCCAUAUCCUAGAGAAGGGGAGGGAGGGAGAACCGACAGAAUAUUUAUUACAAAUGCUAGAAAUAUAUUUAUUAUAUUAGGAAUCUCAUUU | 15 |
| CAUGUGACAAAAUUUUUUAACUAUAAGGUUGUACUGCUGGGAAAAUACAAUGCACAGGGCUCCGGUUCAGAUCAUGAAUUAAUGCUGAGAUGUACCAAAGGACGAGAAUACAUCAAAGUC | 0.236 |
| GGUGGUACCCUAGACCUGACCUUGAUUCGUGCUCGCCUCCAAGAGAAGCUGUCACCUCCUUACCGCUCCCCCCAGGAGUUUGCUCAAGAUGUGGGCCGCAUGUUCAAACAGUUCAACAAG | 0.4 |
| UAUCUUAUAUUGCAUCUCAUCUCUACAGUGUAUACAAGAAGAGAUGUACUUCCUCCCGGAAAAUUUACAGUUAACCUGAGUGGUUGCCCGCAGAACAGUACCUUCACGGAACACCUCUAC | 0.357 |
| UUUGCAGUUUAUGACGGUCAUGCUGGAUCCCGAGUGGCAAAUUACUGUUCAACACAUCUAUCCGAACACAUCACCACCAAUGAAGACUUCAGGGCAGCUGACAAAUCAGGCUCUGCUCUC | 0.184 |

Mixed results
| Substance | target | assay | system | conditions | how to read | measurement | value |
| --- | --- | --- | --- | --- | --- | --- | --- |
| PhoQ, residues 284 288 289 292 302 303 AMDMFI | PhoP, residues 12 14 15 18 19 LQHIR (Escherichia coli, UniProt P23836) | Sort-seq, measured: YFP reporter | E. coli | PhoQ-PhoP variant library, added: 10 µM Mg2+ | relative to: high Mg2+ state, higher = stronger signaling | fold induction | 1.16 |
